Published values pooled from the literature.
Compare with care: the assays were run in different laboratories.
Target: Receptor tyrosine-protein kinase erbB-4 (ERBB4, Homo sapiens, UniProt Q15303)

| Structure (SMILES) | test | conditions | how to read | quantity | value |
| --- | --- | --- | --- | --- | --- |
| NC(=O)C[C@H]1CCc2sc3ncnc(O[C@H]4CC[C@H](N5CCOCC5)CC4)c3c21 | enzyme activity, inhibitor | 10 µM |  | inhibition | 8% |
| C=CC(=O)Nc1cccc(-c2cnc3[nH]cc(C(=O)NC(C)(C)C)c3n2)c1 | enzyme activity, inhibitor | 0.1 µM |  | inhibition | 4% |
| COc1ccc(C(=O)/C=C/c2ccccc2-c2c[nH]c3ccc(C#N)cc23)c(O)c1 | enzyme activity, inhibitor | 20 µM |  | inhibition | 1% |
| Cc1cccc(O[C@H]2CCC[C@@H](C(C)CNCc3ccncc3)C2)c1 (relative stereo) | enzyme activity, inhibitor | 1 µM |  | inhibition | 14% |
| Cc1nc2c(F)cc(-c3nc(Nc4ccc(CNC(=O)CCCCCCC(=O)NO)cc4)ncc3F)cc2n1C(C)C | enzyme activity, inhibitor | 1 µM |  | inhibition | 36% |
| COc1cc(Nc2nc(C)cc(-c3cnn4nc(OC)ccc34)n2)cc(C(F)(F)F)c1 | inhibitor | 1 µM | relative to: control | remaining activity | 90% |
| CN1CCN(Cc2ccc(NC(=O)c3cccc(C#Cc4cnc(N)c5ncccc45)c3)cc2C(F)(F)F)CC1 | cell-free assay, competition with immobilised ligand | 50 nM |  | remaining binding | 53% |
| CN1CC[C@@H](COc2cnc(C#N)cc2-c2ccn3nc(NC(=O)C4CC4)cc3c2)C1 | enzyme activity, inhibitor | 1 µM |  | inhibition | -11% |
| CC(C)=CC1OC(C)(C)C2C=C3C(=O)C(Cl)=CC(O)C3C3C(O)C4OC4C(=O)C132 (centres unmarked) | cell-free assay, competition with immobilised ligand | 10 µM |  | remaining binding | 91% |
| COc1c(Cl)cccc1Nc1c(-c2ccncc2C#C[C@@]2(C)CCCN2C(=O)/C=C/CN(C)C)[nH]c2c1C(=O)NCC2 | binding, competition with immobilised ligand | 3 µM |  | remaining binding | 0% |
| COc1ccc(NC(=O)Nc2ccc3c(c2)C(=O)N(C(C)CO)CC(C)C(CN(C)Cc2ccc4c(c2)OCO4)O3)cc1 (centres unmarked) | binding, competition with immobilised ligand | 10 µM |  | remaining binding | 97% |
| CCn1cc(C(=O)O)c(=O)c2c(N)c(F)c(NC3CCCCC3)cc21 | kinase activity | 0.1 µM, with: ATP at Km |  | inhibition | 9.5% |
| O=C(Nc1ccc(Oc2ncnc3[nH]cc(-c4ccccc4)c23)c(F)c1)c1c2n(n(-c3cc(F)ccc3F)c1=O)CCCC2 | enzyme activity, inhibitor | 0.5 µM |  | inhibition | 19% |
| O=C=[N][Ru-4]123([n]4c5ccc(O)cc5c5c6c(c7cc(F)c[n+]1c7c54)C(=O)NC6=O)[S+]1CC[S+]2CC[S+]3CC1 (centres unmarked) | enzyme activity | 100 nM, human enzyme, with: 10 µM ATP | relative to: untreated | remaining activity | 111% |
| CNS(=O)(=O)Nc1nccc(Cc2c(C)c3ccc(Oc4ncccc4F)cc3oc2=O)c1F | binding, competition with immobilised ligand | 10 µM |  | remaining binding | 95% |
| c1ccc2c(Nc3cc(C4CCC4)[nH]n3)nc(Nc3ccc4nc[nH]c4c3)nc2c1 | enzyme activity, inhibitor | 0.25 µM |  | remaining activity | 32% |
| CN1CCN(Cc2ccc(-c3ccc(CO[C@H]4CCC[C@@H]4NC(=O)c4cc(-c5cnn(C)c5)cnc4N)cc3)cc2)CC1 | enzyme activity, inhibitor | 0.1 µM |  | inhibition | 2% |
| COc1cc(OC)c(F)c(/C=C/c2cnc3ccn(S(=O)(=O)c4cn(CCF)cn4)c3n2)c1F |  | 1000 nM |  | inhibition | 9.2% |
| CNC(=O)C1CCN(c2cc(C)c(F)cc2NC(=O)c2ccc(-c3cc(O)ccc3C)c(C)c2)CC1 | binding, competition with immobilised ligand | 1 µM |  | remaining binding | 51% |
| Nc1ncc2c(n1)-c1c([nH]c3ccc(C4=CCOCC4)cc13)CCC2 | binding, competition with immobilised ligand | 1 µM |  | remaining binding | 97% |

Repeated from above:
| Structure (SMILES) | test | conditions | how to read | quantity | value |
| --- | --- | --- | --- | --- | --- |
| COc1cc(OC)c(F)c(/C=C/c2cnc3ccn(S(=O)(=O)c4cn(CCF)cn4)c3n2)c1F |  | 1000 nM |  | inhibition | 9.2% |
| COc1ccc(NC(=O)Nc2ccc3c(c2)C(=O)N(C(C)CO)CC(C)C(CN(C)Cc2ccc4c(c2)OCO4)O3)cc1 (centres unmarked) | binding, competition with immobilised ligand | 10 µM |  | remaining binding | 97% |
